Results pooled from the literature.
Every numbered part comes from another study and shows a few of its results, in no order. Changes are numbered by the printed parent chain.

Study 1
Target: Interferon regulatory factor 5, full length, phosphomimetic (IRF5, Homo sapiens, UniProt Q13568-2, residues 1-514, S451D/S453D/S456D/S462D)
Method: protein-binding microarray
Form: double-stranded DNA, one strand shown
Sample: in vitro
Tested at: 940 nM top
Setting: 60-bp whole probe
Added: salmon DNA 0.4 mg/ml
Baseline: random background probes
Direction: higher = stronger binding
Shared flanks, not repeated: GCCTAGCAC … GTCTTGATTCGCTTGACGCTGCTG
Strand | fitted relative affinity [z-score]
TTAGGACTGGACACTCGGTTAGTGCTA | -0.471
GGCGGTTTCGGGTATCGGGACGTGCTA | 9.45
TTAGGTCTCCTACTGGTTTAGTGCTAG | -0.115
TTAGGACTGCTAGTGCTTTAGTGCTAG | -0.247
CCTAGTTTTACTTTCTATCTGTGCTAG | 2.45
GGCGGTCTCCTTTTCCTGACGTGCTAG | 0.631
GACGGTCTCGTACTGGGGACGTGCTAG | 0.305
TCATTTGTCATCTATAATACTGTGCTA | 0.696
TTAGATTCCAGTTTGGATTAGTGCTAG | -0.214
GACAGTTTCGGGTTTCGGGACGTGCTA | 9.64
TCAACTTTGCTCTGTGCGACTGTGCTA | -0.0875
GACGAACAGAGTCTCGAGACGTGCTAG | 0.186
TTAGTTATCGGTTTCGGTTAGTGCTAG | 8.77

Study 2
Target: Histone acetyltransferase KAT6A, winged helix 2, GST fusion (KAT6A, Homo sapiens, UniProt Q92794, residues 85-181)
Method: protein binding microarray
Form: double-stranded DNA, one strand shown
Sample: in vitro
Tested at: not given
Setting: 8-mer, flanks averaged, mean of 2 arrays, mostly near background
Baseline: not given
Direction: higher = stronger binding
Residues (chain): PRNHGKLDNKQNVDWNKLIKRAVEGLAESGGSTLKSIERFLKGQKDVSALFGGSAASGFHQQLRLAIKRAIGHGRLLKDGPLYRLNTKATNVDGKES
Strand | E-score
GTATGCGA | 0.134
ATGACGGG | 0.021
CCAATCTC | -0.0839
CAATTAGG | 0.0929
ACGCCGTA | -0.128
CAAGTCGC | 0.0654
ATTCTATA | 0.0332
ATTCGATA | -0.0699
AGAGCCGG | 0.125
AGCCGCAG | 0.193
AAAACGTC | -0.0524
GACTGCGA | 0.137
AGTTAGGG | -0.0478
CACTTCAG | 0.0472
ATTTGCGA | 0.1
CCAGTGAG | -0.0464
GTCGTAGA | -0.0197
TGACGACA | 0.121
CTGTGGTC | 0.0771
GCCTACAC | -0.0244
CACTGGTC | -0.0312
CCGATCGA | 0.134
CACATCTC | -0.0915
AGACCGGG | 0.0809
CCTTCTGC | 0.0711

Study 3
Target: RNA binding protein fox-1 homolog 2, RRM domain, GST-SBP tag (RBFOX2, Homo sapiens, UniProt O43251-10, residues 100-194)
Method: RNA Bind-n-Seq
Form: RNA
Sample: in vitro
Tested at: 365 nM
Setting: natural RNA segment, single round, ends assumed
Baseline: no-protein control
Direction: higher = stronger binding
Shared flanks, not repeated: GGGAGUUCUACAGUCCGACGAUC … UGGAAUUCUCGGGUGCCAA
Residues (chain): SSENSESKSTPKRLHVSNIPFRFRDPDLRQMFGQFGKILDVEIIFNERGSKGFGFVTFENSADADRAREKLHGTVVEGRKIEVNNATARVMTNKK
Strand | RBNS enrichment (R)
GUAUGAUACAUGUAAAAUUAAAAAAACUAUUAGAACUGUACCAUAAUUAUGUUGAAGGUAGAAGUGAUCUUCAAAGAGAUGGCCAUUAACUUAGCAGUGGGACCUCACUU | 0.415
CCCCCAUACCACUGUGUUCCUUCUGUAACGCCACGUUCUCCCUCCAGCAUGCCGAGCACAAUGUCCACCCACUUGUGCUGUGUAGACUGUUGCAUACAGCUGAGUACAGU | 3.18
AACUGCAUGCACUUCUCUCCCCAUCGCUCCACAACCUGAAACCGAGAAGGAGUUGCUGACCAGUGCCCACCCCGGCAGCCCGGGAGGAACACAGGCAGCUCCUUUCCCUU | 2.21
GACCAGAAGUUGCACAGACAUGAUUUGUGCUGGAGUCAAGGGGCAGAACAGAAGAAUCUGACAGGCACUAAUUGGAUACUGUGGCUUGUUUGGAUAGAAAUUCUGAAUGG | 0.729
GAUCUGAUUUUCUUUCUUCUUUCUUUUUUUCUAAUUGAGAGGAUUAUUCCCAGUAAGCUUCCAUGACCCUUUCUUGGAGGCCUUCACAGGUAAUACAGAUACUGGCACUG | 0.316
AGCAGAACCUGCACACAGGACAGCGGGAAAAAUCGAUGAGCGCCACCUCUUUAAAAACUCACUUACGUUUGUCCUUUUUCACUUUGAAAAGUUGGAAGGAUCUGCUGAGG | 0.43
CUGCUGGAGUCAGACUUACAAAAGCCUUAAGCGGAAAGUGUCCAGACCAGGCUGAGUCAGUAAAGGAGGCGCGGGCCUCGACGCCCACGCUGGCAGCUUUGACAGAAACU | 0.328
GCAAAGUGGGAAGCCACGGCAGCCUCCGGCCUCCCCUGCUGAAUGCUCUAUACAAAUUCAGCACCUUUGACUGGUUUUGAGUGUGCAUUUUCUUUUAGUGAUACUGUUAC | 0.37
AGUUAAUAGUCUAUUAUUUUAUGUCUAUUGAUUUUCAUUGUUAAUGUGAAAUGGUUAUUUAUACUUAUAGAAAGUUUGUGAAAUUUGCACAGUUGUCUUUCAAAGGAUAG | 0.527
CUCUACACACCAACCCUUUCUUUCCUAUCUAGCUUUCUAGUAGGGAGCGGGAGGGGGGAGGGGAAGGGUAACCCACUGCUUCAUCUCAUCGGGUAUGCAUGUCCGGUAGG | 6.09
GCCAGAGGGAACUGCCCUGCAAGGGUGGGCCCCCAGCCGGCAGGGGAACUUUCUAGACUCCCGCUCAUUCAAUUGAUCUAGGCAUUUGGGCUUGCUACUUGACCAUUCUC | 0.23
ACAUUCACAGGUGCACGCAUAUAUGUGUGUCGCCCCCACCCCCGCCAUGGCAUUUCAUGAUAUGUGAUUAGGAGCUCGUGUGCACCCUCAUAUCCAUUCCAUGAGAAGGU | 0.551

Study 4
Target: Ras GTPase-activating protein-binding protein 1, RRM domain (G3BP1, Homo sapiens, UniProt Q13283)
Sequence of UniProt Q13283 (whole entry, looked up): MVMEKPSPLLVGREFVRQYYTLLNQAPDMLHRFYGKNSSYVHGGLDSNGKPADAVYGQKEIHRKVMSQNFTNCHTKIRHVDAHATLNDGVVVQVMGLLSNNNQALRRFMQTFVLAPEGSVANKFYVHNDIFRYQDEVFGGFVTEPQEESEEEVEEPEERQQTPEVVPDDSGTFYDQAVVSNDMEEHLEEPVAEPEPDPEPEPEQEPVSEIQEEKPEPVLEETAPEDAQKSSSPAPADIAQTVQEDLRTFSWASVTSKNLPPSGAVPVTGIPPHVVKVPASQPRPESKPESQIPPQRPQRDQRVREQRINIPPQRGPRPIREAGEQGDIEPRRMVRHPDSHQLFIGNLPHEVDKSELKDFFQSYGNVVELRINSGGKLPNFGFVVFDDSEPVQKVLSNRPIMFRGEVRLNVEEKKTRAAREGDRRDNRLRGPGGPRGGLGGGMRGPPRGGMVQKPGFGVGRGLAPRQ
Method: RNA Bind-n-Seq
Form: RNA
Sample: in vitro
Tested at: 1 µM
Setting: whole 134-nt RNA, ends assumed
Added: 150 mM KCl
Baseline: input library
Direction: higher = stronger binding
Shared flanks, not repeated: GGGAGUUCUACAGUCCGACGAUC … UGGAAUUCUCGGGUGUCAAGG
Strand | log2 enrichment
UGCCAUGGACAAUAUUACCAGGCAGAACCAAUUCUACGAUACCCAAGUCAUCAAACAAGAAAACGAGUCAGGCUACGAGAGGAGACCACU | -0.0584
UCCUCAAGUCCUGUGCUACACAUCGUAUGUACCGAAUCGGGGAGGGAGGAGGAAAGUAUUAUGUUACGCCGUUCGGAUCUGCACUUCCAG | -0.196
CACAGACAACACGCACCCACACAGACACAGAGGGAAGGGGUUGGGAUGGGGACAGGGUGUACAGCAGGGCGGGGUAGGACCCCAGCCCCU | -0.0979
UCCUGUGCUACACAUCGUAUGUACCGAAUCGGGGAAAAAGGGGUGGGGUUUUUUUGGGGAAAGUAUUAUGUUACGCCGUUCGGAUCUGCA | 0.654
AGUCCUGUGCUACACAUCGUAUGUACCGAAUCGGGGCCCCGGGCCCCGGGCCCCGGGGAAAGUAUUAUGUUACGCCGUUCGGAUCUGCAC | -0.979
AGUCCUGUGCUACACAUCGUAUGUACCGAAUCGGAAAAAGGAAAAAGGGGAAAAAGGAAAGUAUUAUGUUACGCCGUUCGGAUCUGCACU | -0.0949
UGGGAGGUGGAUUUUGUUUCUUUUUUUAGCUCAUUUCCAGGGGUGGGAAUUUUUUUUUAAUAUGUGUCAUGAAUAAAGUUGUUUUUGAAA | 1.07
CAAGUCCUGUGCUACACAUCGUAUGUACCGAAUCGGGAAAGGGUUUUUGGGAGGGAAAGUAUUAUGUUACGCCGUUCGGAUCUGCACUUC | 0.806
CAAGUCCUGUGCUACACAUCGUAUGUACCGAAUCGGAAAAAGGUGGAAAAAAAGGAAAGUAUUAUGUUACGCCGUUCGGAUCUGCACUUC | -0.134
AGUCCUGUGCUACACAUCGUAUGUACCGAAUCGGGAAAAGGAAAAGGGGAAAAGGGGAAAGUAUUAUGUUACGCCGUUCGGAUCUGCACU | 0.148
CAAGUCCUGUGCUACACAUCGUAUGUACCGAAUCGGGAAAAAGGGAAAGGGAGGGAAAGUAUUAUGUUACGCCGUUCGGAUCUGCACUUC | 0.86
CAAGUCCUGUGCUACACAUCGUAUGUACCGAAUCGGCCCCGGCCCCGGGCCCCGGGAAAGUAUUAUGUUACGCCGUUCGGAUCUGCACUU | -1.25
UGGCCCUGGUGGCAUGCGGGGAGGAAGAGGUGGCCUCAUGGAUCGUGGUGGUCCCGGUGGAAUGUUCAGAGGUGGCCGUGGCGGAGACAG | 1.36
UAACUUUAGAGGAGGAUCUGAUGGAUAUGGCAGUGGACGCGGAUUUGGGGAUGGCUAUAAUGGGUAUGGAGGAGGACCUGGAGGUGGCAA | -0.511

Study 5
Target: CCNE1, cyclin fold, Cln2 fusion (human)
Method: yeast growth competition, sequencing
Sample: yeast
Setting: weak parent motif
Baseline: not given
Direction: higher = stronger binding
Starting sequence: REV3L docking peptide (human); PPVIIKYIIINRF
Variant | normalised enrichment score
PAVIIKYIIINRF [P2A] | 0.654
PPVAIKYIIINRF [I4A] | 0.433
PPAIIKYIIINRF [V3A] | 0.658
PPVIIKYIIINRA [F13A] | 0.361
PPVIIKAIIINRF [Y7A] | 0.855
PPVIIKYIIANRF [I10A] | 1.1
PPVIIKYIAINRF [I9A] | 0.264

Study 6
Target: Sal-like protein 4, full length isoform A (SALL4, Homo sapiens, UniProt Q9UJQ4, residues 1-1053)
Sequence of UniProt Q9UJQ4 (whole entry, looked up): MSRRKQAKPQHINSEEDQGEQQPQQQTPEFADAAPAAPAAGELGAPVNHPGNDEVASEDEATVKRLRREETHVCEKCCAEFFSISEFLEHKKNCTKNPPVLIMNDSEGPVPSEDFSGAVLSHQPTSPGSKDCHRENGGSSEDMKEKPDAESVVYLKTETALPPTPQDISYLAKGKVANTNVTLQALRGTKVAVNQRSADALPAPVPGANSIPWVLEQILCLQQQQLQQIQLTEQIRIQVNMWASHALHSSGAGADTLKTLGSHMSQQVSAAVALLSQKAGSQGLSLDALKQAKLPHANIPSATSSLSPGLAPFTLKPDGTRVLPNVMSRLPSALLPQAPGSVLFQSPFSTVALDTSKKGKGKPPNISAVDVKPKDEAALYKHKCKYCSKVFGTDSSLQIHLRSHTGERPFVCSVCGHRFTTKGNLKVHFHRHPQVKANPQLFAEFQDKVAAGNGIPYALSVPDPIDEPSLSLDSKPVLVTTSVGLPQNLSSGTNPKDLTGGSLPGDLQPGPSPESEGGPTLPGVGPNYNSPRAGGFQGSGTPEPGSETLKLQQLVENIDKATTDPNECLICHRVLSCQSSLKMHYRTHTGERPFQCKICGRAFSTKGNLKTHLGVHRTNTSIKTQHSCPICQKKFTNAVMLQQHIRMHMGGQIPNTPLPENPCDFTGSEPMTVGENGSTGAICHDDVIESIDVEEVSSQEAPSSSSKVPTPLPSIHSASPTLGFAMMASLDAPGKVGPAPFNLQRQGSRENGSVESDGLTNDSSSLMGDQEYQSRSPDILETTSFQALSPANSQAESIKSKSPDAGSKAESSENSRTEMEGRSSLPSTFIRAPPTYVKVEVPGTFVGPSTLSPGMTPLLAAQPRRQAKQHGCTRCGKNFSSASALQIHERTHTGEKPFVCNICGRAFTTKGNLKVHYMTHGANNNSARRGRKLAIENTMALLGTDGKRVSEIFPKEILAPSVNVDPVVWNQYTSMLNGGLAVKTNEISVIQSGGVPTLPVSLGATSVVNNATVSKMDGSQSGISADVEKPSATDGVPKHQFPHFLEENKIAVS
Method: universal PBM
Form: double-stranded DNA, one strand shown
Sample: in vitro
Tested at: 600 nM
Setting: 8-mer, flanks averaged, mean of replicates
Direction: higher = stronger binding
Strand | E-score
CGCTGCTC | -0.213
ACGACAAA | 0.208
CGACCGTA | -0.205
AACTCACA | 0.107
CTAGTAAA | 0.238
ATGAAATG | 0.205
CCTCTTCC | -0.201
GCTCCCAC | -0.265
AAGATGAT | 0.232
CCACTTAA | 0.0474
GAATGATA | 0.313
AACCCACC | -0.224
GCTTGAGA | -0.0636
GCTATAGA | 0.23
GGATAGGA | -0.11
AAAGCGCG | -0.175
CGCACTCA | -0.114
AAACGTGT | 0.108
GTACTAAC | 0.0938

Study 7
Target: ABI1, truncated, D143A, DHFR fusion (Arabidopsis thaliana)
Method: DHFR PCA, deep sequencing
Sample: yeast
Setting: methotrexate growth selection, single substitutions
Added: (+)-ABA 2500 µM
Baseline: wild-type fitted maximum
Direction: higher = stronger binding
Starting sequence: PYL1, truncated, DHFR fusion (Arabidopsis thaliana); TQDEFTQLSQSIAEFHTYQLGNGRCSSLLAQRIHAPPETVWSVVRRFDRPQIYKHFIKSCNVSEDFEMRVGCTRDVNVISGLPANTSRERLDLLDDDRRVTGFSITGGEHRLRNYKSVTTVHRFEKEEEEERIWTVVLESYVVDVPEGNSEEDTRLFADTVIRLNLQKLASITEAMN
Variant | relative binding score
S11P | 100%
Q51F | 101%
E174C | 96.5%
L166Q | 83.9%
I57C | 88.6%
H110D | 35.1%
N85F | 93%
D65G | 97.2%
R132F | 106%
D159V | 38.4%
G71A | 80.3%
T154L | 81.8%
Y53M | 82.7%
R88P | 35.2%
C72G | 92.5%
I57G | 25.9%

Excerpt of the above (study 7):
Variant | relative binding score
S11P | 100%
Q51F | 101%
E174C | 96.5%
L166Q | 83.9%
I57C | 88.6%
H110D | 35.1%
N85F | 93%
D65G | 97.2%
R132F | 106%
D159V | 38.4%
G71A | 80.3%
T154L | 81.8%
Y53M | 82.7%
R88P | 35.2%
C72G | 92.5%
I57G | 25.9%
